Measured values of several laboratories.
Lines come from different studies, so protocols differ. “And” joins repeats or separate records; there may be more than shown. ± marks the error that the study gave.
U2AF2: U2AF2 148-342 (Homo sapiens, UniProt P26368)
Chain of UniProt P26368 (whole entry, looked up): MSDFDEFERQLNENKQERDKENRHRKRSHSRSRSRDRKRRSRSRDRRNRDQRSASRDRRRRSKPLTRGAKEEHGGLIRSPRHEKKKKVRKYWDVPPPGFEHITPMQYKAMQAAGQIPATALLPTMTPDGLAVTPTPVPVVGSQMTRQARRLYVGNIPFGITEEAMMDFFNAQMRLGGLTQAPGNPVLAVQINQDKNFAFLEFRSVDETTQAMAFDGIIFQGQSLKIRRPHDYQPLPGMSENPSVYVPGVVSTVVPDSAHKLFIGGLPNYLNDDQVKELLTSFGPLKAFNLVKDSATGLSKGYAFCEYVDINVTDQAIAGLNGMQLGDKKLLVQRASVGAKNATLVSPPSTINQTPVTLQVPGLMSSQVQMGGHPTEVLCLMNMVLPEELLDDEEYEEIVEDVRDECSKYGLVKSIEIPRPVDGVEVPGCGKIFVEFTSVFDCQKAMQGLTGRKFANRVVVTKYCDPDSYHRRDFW
B1: enzyme R85Q (Methanopyrus kandleri, UniProt Q8TWG5); chain MSKVAVIGATGRVGSTAAARLALLDCVNEVTLIARPKSVDKLRGLRRDILDSLAAAQKDAEITIGCERDDYVDADVIVMTAGIPQKPGQTRLDLTKDNAAIIKKYLEGVAEENPEAIVLVVTNPVDVLTYVALKVSGLPKNRVIGLGTHLDSMRFKVLIAKHFNVHMSEVHTRIIGEHGDTMVPVISSTSVGGIPVTRMPGWEDFDVEEAVREVKEAGQRIIETWGGSQFGPAQAITNLVRTILQDERRVLTVSAYLDGEIDGIRDVCIGVPARLGREGVLEIVPIELEEDEMRAFRRSVKVVKEATREAMEAISER
B2: enzyme (Arabidopsis thaliana, UniProt Q9C969); chain GSFGMLSRRTLGTDMPVMAQIRSLMAELTNPMSLAQGVVHWQPPQKALEKVKELVWDPIISSYGPDEGLPELRQALLKKLREENKLTNSQVMVTAGANQAFVNLVITLCDAGDSVVMFEPYYFNSYMAFQMTGVTNIIVGPGQSDTLYPDADWLERTLSESKPTPKVVTVVNPGNPSGTYVPEPLLKRIAQICKDAGCWLIVDNTYEYFMYDGLKHCCVEGDHIVNVFSFSKTYGMMGWRLGYIAYSERLDGFATELVKIQDNIPICAAIISQRLAVYALEEGSGWITERVKSLVKNRDIVKEALEPLGKENVKGGEGAIYLWAKLPEGHRDDFKVVRWLAHRHGVVVIPGCASGSPGYLRVSFGGLQEVEMRAAAARLRKGIEELLHHGMVE
B3: enzyme (Salinispora arenicola, UniProt A8M783); chain MASTPWISFTTDYGLADGFVAACHGVLARLAPTARVIDVTHLVPPGDVRRGAAVLAQTVPYLPAAVHVAVVDPGVGTARRAIALTAGNGLLVGPDNGLLLDAATALGGVDAAVELTNPDWLGARMSATFHGRDVFAPVAARLALGAPLADAGPAVEPGALVRLPTPLVQPETDGFTAEVLTVDHFGNVQLAATGALLESLPRSLRVAHRPAVHARTFDDAPPGGLLVHVDSAGLVAVAVNGGRAADLLAVTPGDQLRVTAG
B4: enzyme C424A (Methanosarcina mazei, UniProt Q8PVB1); chain MSEQRSVPLREHLLALKPCRHGGLIQETSETYGIPENEILDFSANFNPLGSPFDYPENGLNFEDIIKKSCGKLLEYPDNRYVEFREAAARFVGLGVTPQSIVPGNGSTEIVRLVVESVIEKGDKVLLPWPTFGEYEMQCRITGAEPVCPSQEEVNTLPDEVLEEAKILFICNPNNPTGKLRTREELKVLAERCREHKTLLYVDEAFIELSDPSQSVADLPAENNYVFVMRSLTKDFAIPGIRMGFGIAPPAMADILNTARLSWNLGAIANNTGIALLNIEGGIDSPYLKKAREMILKEGETLKAKIDRIRGFEAGEVNVNFILVDVSKFMLNSSELTARLAARGVLVRDCVSFHGLGKNYIRVAVRTEKENDRLIAAIGDVITEWGREQAKNELQHVIEKASEEGIGGRKTCEYYPCHFEGQNATFCFCPFYPCENEKTGGKWIQSSRGGRVWSCVDCHLVHKKEIAQKILDCLMHEGDTDELVKVAWKEVMEPIL
B5: SCO6712 V290N/Y229F (Streptomyces coelicolor, UniProt Q9XAL8); chain AKGITARTAPAGGEVRHLKMYAEKLADGQMGYGFEKGKASVPGPLIEVNEGDTLHIEFTNTMDVRASLHVHGLDYEISSDGTAMNKSDVEPGGTRTYTWRTHKPGRRDDGTWRPGSAGYWHYHDHVVGTEHGTGGIRNGLYGPVIVRRKGDVLPDATHTIVFNDMTINNRKPHTGPDFEATVGDRVEIVMITHGEFYHTFHMHGHRWADNRTGILTGPDDPSRVIDNKITGPADSFGFQIIAGEGVGAGAWMYHCHNQSHSDMGMVGLFLVKKPDGTIPGYEPHEHGGATAKSGESGEPTGGAAAHEHEH
B6: CDA (Homo sapiens, UniProt P32320); chain MAQKRPACTLKPECVQQLLVCSQEAKKSAYCPYSHFPVGAALLTQEGRIFKGCNIENACYPLGICAERTAIQKAVSEGYKDFRAIAIASDMQDDFISPCGACRQVMREFGTNWPVYMTKPDGTYIVMTVQELLPSSFGPEDLQKTQ
B7: human RNA helicase DHX8; sequence looked up; chain MAVAVAMAGALIGSEPGPAEELAKLEYLSLVSKVCTELDNHLGINDKDLAEFVISLAEKNTTFDTFKASLVKNGAEFTDSLISNLLRLIQTMRPPAKPSTSKDPVVKPKTEKEKLKELFPVLCQPDNPSVRTMLDEDDVKVAVDVLKELEALMPSAAGQEKQRDAEHRDRTKKKKRSRSRDRNRDRDRDRERNRDRDHKRRHRSRSRSRSRTRERNKVKSRYRSRSRSQSPPKDRKDRDKYGERNLDRWRDKHVDRPPPEEPTIGDIYNGKVTSIMQFGCFVQLEGLRKRWEGLVHISELRREGRVANVADVVSKGQRVKVKVLSFTGTKTSLSMKDVDQETGEDLNPNRRRNLVGETNEETSMRNPDRPTHLSLVSAPEVEDDSLERKRLTRISDPEKWEIKQMIAANVLSKEEFPDFDEETGILPKVDDEEDEDLEIELVEEEPPFLRGHTKQSMDMSPIKIVKNPDGSLSQAAMMQSALAKERRELKQAQREAEMDSIPMGLNKHWVDPLPDAEGRQIAANMRGIGMMPNDIPEWKKHAFGGNKASYGKKTQMSILEQRESLPIYKLKEQLVQAVHDNQILIVIGETGSGKTTQITQYLAEAGYTSRGKIGCTQPRRVAAMSVAKRVSEEFGCCLGQEVGYTIRFEDCTSPETVIKYMTDGMLLRECLIDPDLTQYAIIMLDEAHERTIHTDVLFGLLKKTVQKRQDMKLIVTSATLDAVKFSQYFYEAPIFTIPGRTYPVEILYTKEPETDYLDASLITVMQIHLTEPPGDILVFLTGQEEIDTACEILYERMKSLGPDVPELIILPVYSALPSEMQTRIFDPAPPGSRKVVIATNIAETSLTIDGIYYVVDPGFVKQKVYNSKTGIDQLVVTPISQAQAKQRAGRAGRTGPGKCYRLYTERAYRDEMLTTNVPEIQRTNLASTVLSLKAMGINDLLSFDFMDAPPMETLITAMEQLYTLGALDDEGLLTRLGRRMAEFPLEPMLCKMLIMSVHLGCSEEMLTIVSMLSVQNVFYRPKDKQALADQKKAKFHQTEGDHLTLLAVYNSWKNNKFSNPWCYENFIQARSLRRAQDIRKQMLGIMDRHKLDVVSCGKSTVRVQKAICSGFFRNAAKKDPQEGYRTLIDQQVVYIHPSSALFNRQPEWVVYHELVLTTKEYMREVTTIDPRWLVEFAPAFFKVSDPTKLSKQKKQQRLEPLYNRYEEPNAWRISRAFRRR
Chain of UniProt P26208 (whole entry, looked up): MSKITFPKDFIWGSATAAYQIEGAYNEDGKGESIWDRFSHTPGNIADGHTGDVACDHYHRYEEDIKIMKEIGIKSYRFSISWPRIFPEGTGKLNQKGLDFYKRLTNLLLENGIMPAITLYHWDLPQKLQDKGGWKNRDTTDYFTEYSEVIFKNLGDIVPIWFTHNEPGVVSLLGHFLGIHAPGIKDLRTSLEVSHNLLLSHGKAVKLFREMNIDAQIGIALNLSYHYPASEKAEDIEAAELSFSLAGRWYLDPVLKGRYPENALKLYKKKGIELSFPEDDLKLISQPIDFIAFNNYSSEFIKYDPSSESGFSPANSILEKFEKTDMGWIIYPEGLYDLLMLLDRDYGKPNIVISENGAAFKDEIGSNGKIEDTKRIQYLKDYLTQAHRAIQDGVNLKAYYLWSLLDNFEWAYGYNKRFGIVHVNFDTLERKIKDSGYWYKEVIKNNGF
Chain of UniProt Q00535 (whole entry, looked up): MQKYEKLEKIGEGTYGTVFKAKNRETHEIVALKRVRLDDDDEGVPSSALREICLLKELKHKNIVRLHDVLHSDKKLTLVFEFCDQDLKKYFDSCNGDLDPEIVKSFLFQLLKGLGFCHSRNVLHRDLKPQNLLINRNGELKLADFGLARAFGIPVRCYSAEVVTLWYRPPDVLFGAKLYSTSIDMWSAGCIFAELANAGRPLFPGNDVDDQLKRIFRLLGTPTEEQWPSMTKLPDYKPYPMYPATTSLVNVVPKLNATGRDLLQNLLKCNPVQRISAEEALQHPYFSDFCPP
Chain of UniProt P11446 (whole entry, looked up): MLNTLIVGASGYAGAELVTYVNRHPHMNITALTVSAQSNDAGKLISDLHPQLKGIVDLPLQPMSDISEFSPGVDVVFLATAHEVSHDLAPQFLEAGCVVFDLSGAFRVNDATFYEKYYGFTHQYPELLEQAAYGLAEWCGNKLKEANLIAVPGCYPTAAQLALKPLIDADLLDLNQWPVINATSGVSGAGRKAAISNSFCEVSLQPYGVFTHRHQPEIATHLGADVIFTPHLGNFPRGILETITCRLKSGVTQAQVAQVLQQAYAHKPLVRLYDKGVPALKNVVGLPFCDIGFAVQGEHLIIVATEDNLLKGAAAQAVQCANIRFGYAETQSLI
Chain of UniProt Q96C36 (whole entry, unmodified, looked up): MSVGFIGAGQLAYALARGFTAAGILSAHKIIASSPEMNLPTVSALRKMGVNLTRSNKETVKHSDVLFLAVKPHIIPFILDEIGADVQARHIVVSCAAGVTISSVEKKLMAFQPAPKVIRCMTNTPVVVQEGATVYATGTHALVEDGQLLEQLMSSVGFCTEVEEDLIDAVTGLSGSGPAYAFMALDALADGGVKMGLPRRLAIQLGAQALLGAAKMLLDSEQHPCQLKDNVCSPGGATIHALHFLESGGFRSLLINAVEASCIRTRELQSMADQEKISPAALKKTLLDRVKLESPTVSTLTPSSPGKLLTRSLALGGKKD
Chain of UniProt P78804 (whole entry, looked up): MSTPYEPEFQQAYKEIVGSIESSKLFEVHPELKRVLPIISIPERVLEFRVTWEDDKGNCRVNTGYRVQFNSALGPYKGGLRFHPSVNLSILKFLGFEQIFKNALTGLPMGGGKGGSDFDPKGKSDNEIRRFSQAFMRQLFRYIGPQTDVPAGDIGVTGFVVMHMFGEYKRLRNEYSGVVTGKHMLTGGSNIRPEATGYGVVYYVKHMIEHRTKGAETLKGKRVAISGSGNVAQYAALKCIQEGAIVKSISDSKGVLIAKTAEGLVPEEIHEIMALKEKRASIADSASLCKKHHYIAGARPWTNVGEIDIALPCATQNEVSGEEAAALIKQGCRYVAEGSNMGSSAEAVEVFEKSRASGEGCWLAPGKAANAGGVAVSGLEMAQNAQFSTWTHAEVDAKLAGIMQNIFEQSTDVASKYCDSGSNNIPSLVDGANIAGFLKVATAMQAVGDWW
Chain of UniProt Q6RYA0 (whole entry, looked up): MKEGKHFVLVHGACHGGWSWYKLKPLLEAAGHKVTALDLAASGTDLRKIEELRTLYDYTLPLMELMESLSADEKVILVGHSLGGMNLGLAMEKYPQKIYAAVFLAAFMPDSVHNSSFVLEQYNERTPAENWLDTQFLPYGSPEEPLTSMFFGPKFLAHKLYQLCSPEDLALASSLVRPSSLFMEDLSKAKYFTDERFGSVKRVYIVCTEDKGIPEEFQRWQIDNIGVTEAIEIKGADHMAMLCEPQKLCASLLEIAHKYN
Chain of UniProt Q9R7D7 (whole entry, looked up): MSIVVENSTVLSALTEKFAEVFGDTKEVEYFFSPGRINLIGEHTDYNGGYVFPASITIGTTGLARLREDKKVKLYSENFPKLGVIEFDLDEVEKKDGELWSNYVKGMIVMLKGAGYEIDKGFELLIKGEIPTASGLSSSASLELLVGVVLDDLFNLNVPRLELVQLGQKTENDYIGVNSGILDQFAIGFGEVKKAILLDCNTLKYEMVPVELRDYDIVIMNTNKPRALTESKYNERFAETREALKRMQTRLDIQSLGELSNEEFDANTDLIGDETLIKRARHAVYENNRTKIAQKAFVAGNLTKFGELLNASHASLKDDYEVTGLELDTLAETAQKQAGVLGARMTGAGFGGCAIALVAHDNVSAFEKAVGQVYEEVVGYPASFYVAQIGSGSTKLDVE
Chain of UniProt P30718 (whole entry, looked up): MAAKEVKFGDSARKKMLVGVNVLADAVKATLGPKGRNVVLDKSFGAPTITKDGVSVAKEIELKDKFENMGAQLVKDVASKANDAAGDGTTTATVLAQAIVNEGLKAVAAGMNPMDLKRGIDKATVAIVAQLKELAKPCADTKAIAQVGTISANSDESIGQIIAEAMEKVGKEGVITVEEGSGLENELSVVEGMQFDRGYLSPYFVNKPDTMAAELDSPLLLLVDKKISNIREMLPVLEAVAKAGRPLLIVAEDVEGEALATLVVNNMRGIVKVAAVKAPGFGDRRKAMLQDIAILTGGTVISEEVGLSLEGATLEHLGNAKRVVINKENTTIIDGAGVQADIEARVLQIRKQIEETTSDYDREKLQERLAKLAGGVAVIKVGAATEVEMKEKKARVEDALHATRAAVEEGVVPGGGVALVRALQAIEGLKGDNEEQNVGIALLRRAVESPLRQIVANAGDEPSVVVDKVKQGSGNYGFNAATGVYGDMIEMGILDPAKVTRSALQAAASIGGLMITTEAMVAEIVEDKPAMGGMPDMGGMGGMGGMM

The activity change of `KEAFWERCLSVINLMSSKMLQINA` is reported as 12% (Cyclin-dependent kinase 5, with p25 (CDK5, Homo sapiens, UniProt Q00535); phosphotransferase activity, radiometric; peptide; concentration not given, 10% DMSO, with: histone substrate; relative to: p5-WT peptide).
With `groEL (Pseudomonas aeruginosa, UniProt P30718)` the kcat/Km was 892 M⁻¹ s⁻¹ (Nc1ncnc2c1ncn2[C@@H]1O[C@H](COP(=O)(O)OP(=O)(O)OP(=O)(O)O)[C@@H](O)[C@H]1O; steady-state kinetics; pH 7.4, 24 °C, apparent, per site).
The kcat/Km of `B1 (enzyme R85Q)` is reported as 4200 M⁻¹ s⁻¹ (CC(=O)C(=O)O; steady-state kinetics; pH 6, 60 °C, with: 0.3 mM NADH).
`enzyme (Lactococcus lactis, UniProt Q9R7D7)` gave a kcat/Km of 207000 ± 9000 M⁻¹ s⁻¹ (Nc1ncnc2c1ncn2[C@@H]1O[C@H](COP(=O)(O)OP(=O)(O)OP(=O)(O)O)[C@@H](O)[C@H]1O; steady-state kinetics; pH 8, 24 °C).
The kcat/Km of `bglA (Acetivibrio thermocellus, UniProt P26208)` is reported as 140000 ± 13000 M⁻¹ s⁻¹ (O=[N+]([O-])c1ccc(O[C@@H]2O[C@H](CO)[C@@H](O)[C@H](O)[C@H]2O)cc1; steady-state kinetics; pH 5.5, 60 °C).
The kcat/Km of `SABP2 (Nicotiana tabacum, UniProt Q6RYA0)` is reported as 1020 M⁻¹ s⁻¹ (CC(=O)Oc1ccc([N+](=O)[O-])cc1; steady-state kinetics; pH 7.2, 22 °C).
For `enzyme (Acinetobacter baumannii, UniProt A0A5P1UDB1)`, the kcat/Km was 398 M⁻¹ s⁻¹ (O=C(O)c1cccc(Cl)c1O; steady-state kinetics; pH 7.5, 37 °C, apparent).
`gdh E198C (Bacillus subtilis)` gave a kcat/Km of 21500 ± 1500 M⁻¹ s⁻¹ (NC(=O)c1ccc[n+]([C@@H]2O[C@H](COP(=O)(O)OP(=O)(O)OC[C@H]3O[C@@H](n4cnc5c(N)ncnc54)[C@H](O)[C@@H]3O)[C@@H](O)[C@H]2O)c1; steady-state kinetics; pH 8, 45 °C).
The kcat/Km of `argC (Escherichia coli, UniProt P11446)` is reported as 70 ± 1 M⁻¹ s⁻¹ (N[C@@H](CCC=O)C(=O)O; steady-state kinetics; pH 7.6, apparent, with: 1 mM NADP+).
With `enzyme (Pseudanabaena biceps, UniProt L8N0N6)` the kcat/Km was 6960 ± 860 M⁻¹ s⁻¹ (NC(=O)c1ccc[n+]([C@@H]2O[C@H](COP(=O)(O)OP(=O)(O)OC[C@H]3O[C@@H](n4cnc5c(N)ncnc54)[C@H](O)[C@@H]3O)[C@@H](O)[C@H]2O)c1; steady-state kinetics; pH 7.4, 30 °C, apparent, cofactor varied).
`enzyme (Klebsiella pneumoniae, UniProt A6THV5)` gave a kcat/Km of 46.7 ± 1.67 M⁻¹ s⁻¹ (CSCC[C@@H](NC(C)=O)C(=O)O; steady-state kinetics; pH 8, 35 °C).
With `PYCR2 (Homo sapiens, UniProt Q96C36)` the kcat/Km was 41000 ± 2000 M⁻¹ s⁻¹ (O=C(O)[C@@H]1CCC=N1; steady-state kinetics; pH 7.5, 37 °C, apparent, with: NADH 500 µM).
`B2 (enzyme)` gave a kcat/Km of 2500 M⁻¹ s⁻¹ and 4170 M⁻¹ s⁻¹ (O=C(O)C(=O)Cc1c[nH]c2ccccc12; steady-state kinetics).
The kcat/Km of `enzyme (Schizosaccharomyces pombe, UniProt P78804)` is reported as 330000 ± 30000 M⁻¹ s⁻¹ (NC(=O)c1ccc[n+]([C@@H]2O[C@H](COP(=O)(O)OP(=O)(O)OC[C@H]3O[C@@H](n4cnc5c(N)ncnc54)[C@H](OP(=O)(O)O)[C@@H]3O)[C@@H](O)[C@H]2O)c1; steady-state kinetics; pH 7, 30 °C, apparent).
The kcat/Km of `B3 (enzyme)` is reported as 7500 M⁻¹ s⁻¹ (C[S+](CC[C@H](N)C(=O)O)C[C@H]1O[C@@H](n2cnc3c(N)ncnc32)[C@H](O)[C@@H]1O; steady-state kinetics; pH 7.9, 37 °C, apparent, with: 1-200 µM SAM).
With `enzyme (UniProt A0A097IUD8)` the kcat/Km was 24000 M⁻¹ s⁻¹ (C=C(OP(=O)(O)O)C(=O)O; steady-state kinetics; pH 6, 25 °C, with: 2 mM ADP).
With `B4 (enzyme C424A)` the kcat/Km was 20 ± 4 M⁻¹ s⁻¹ (Nc1ncnc2c1ncn2[C@@H]1O[C@H](COP(=O)(O)OP(=O)(O)OP(=O)(O)O)[C@@H](O)[C@H]1O; steady-state kinetics; pH 8.5, 25 °C, apparent, anoxic, with: L-Thr 10 mM).
With `B5 (SCO6712 V290N/Y229F)` the kcat/Km was 1800 ± 200 M⁻¹ s⁻¹ (CCn1c(=NN=c2sc3cc(S(=O)(=O)O)ccc3n2CC)sc2cc(S(=O)(=O)O)ccc21; steady-state kinetics; pH 7, 37 °C, NaCl 150 mM, with: O2 cosubstrate).
`GCAGAAUUU (ssRNA)` has a Kd of 2.55 µM (U2AF2; sequencing of bound RNA; RNA; motif only).
`B6 (CDA)` gave a kcat/Km of 50000 M⁻¹ s⁻¹ (Nc1nc(=O)n([C@@H]2O[C@H](CO)[C@@H](O)[C@H]2F)cc1-c1ccco1; steady-state kinetics; pH 7.4, 37 °C).
The Kd of `CGAAUUCCG (ssRNA)` is reported as 6.2 µM (U2AF2; sequencing of bound RNA; RNA; motif only).
`B7 (human RNA helicase DHX8)`: “log2 fold change” 0.72 (CYB5R4 knockout human cells; PP4 interaction, 3xFLAG-PP4C IP-MS; concentration not given; relative to: CYB5R4 KO over parental).
`enzyme (Homo sapiens, UniProt Q08623)` has a kcat/Km of 783000 M⁻¹ s⁻¹ (O=c1[nH]cc([C@@H]2O[C@H](COP(=O)(O)O)[C@@H](O)[C@H]2O)c(=O)[nH]1; steady-state kinetics; pH 7, 25 °C).
For `human annexin A11`, “log2 fold change” read 2.11 (PP6C (human); co-immunoprecipitation, IP-MS; CYB5R4 knockout cells; concentration not given; relative to: CYB5R4 knockout over parental).
`acsA L233M (Pseudomonas chlororaphis)` has a kcat/Km of 133 ± 16.7 M⁻¹ s⁻¹ (O=C(O)CCC(F)(F)F; steady-state kinetics; pH 7).

Repeated from above:
The kcat/Km of `B3 (enzyme)` is reported as 7500 M⁻¹ s⁻¹ (C[S+](CC[C@H](N)C(=O)O)C[C@H]1O[C@@H](n2cnc3c(N)ncnc32)[C@H](O)[C@@H]1O; steady-state kinetics; pH 7.9, 37 °C, apparent, with: 1-200 µM SAM).
With `enzyme (Pseudanabaena biceps, UniProt L8N0N6)` the kcat/Km was 6960 ± 860 M⁻¹ s⁻¹ (NC(=O)c1ccc[n+]([C@@H]2O[C@H](COP(=O)(O)OP(=O)(O)OC[C@H]3O[C@@H](n4cnc5c(N)ncnc54)[C@H](O)[C@@H]3O)[C@@H](O)[C@H]2O)c1; steady-state kinetics; pH 7.4, 30 °C, apparent, cofactor varied).
